Earlier results that unrelated publications cite.
Compare with care: the assays were run in different laboratories. ± marks the error that the study gave. No end group written: not given here.
UniProt O35627, sequence (whole entry, unmodified, looked up): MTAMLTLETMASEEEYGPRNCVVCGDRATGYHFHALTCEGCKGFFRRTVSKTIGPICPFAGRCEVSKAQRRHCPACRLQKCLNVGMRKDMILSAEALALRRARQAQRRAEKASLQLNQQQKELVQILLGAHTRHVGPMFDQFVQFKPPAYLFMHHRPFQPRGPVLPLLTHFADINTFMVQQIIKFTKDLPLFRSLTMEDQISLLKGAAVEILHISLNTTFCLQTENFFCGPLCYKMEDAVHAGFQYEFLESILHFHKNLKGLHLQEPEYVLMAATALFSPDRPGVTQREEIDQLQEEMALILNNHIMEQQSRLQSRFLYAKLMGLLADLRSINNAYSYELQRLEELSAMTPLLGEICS
UniProt Q00961, sequence (whole entry, looked up): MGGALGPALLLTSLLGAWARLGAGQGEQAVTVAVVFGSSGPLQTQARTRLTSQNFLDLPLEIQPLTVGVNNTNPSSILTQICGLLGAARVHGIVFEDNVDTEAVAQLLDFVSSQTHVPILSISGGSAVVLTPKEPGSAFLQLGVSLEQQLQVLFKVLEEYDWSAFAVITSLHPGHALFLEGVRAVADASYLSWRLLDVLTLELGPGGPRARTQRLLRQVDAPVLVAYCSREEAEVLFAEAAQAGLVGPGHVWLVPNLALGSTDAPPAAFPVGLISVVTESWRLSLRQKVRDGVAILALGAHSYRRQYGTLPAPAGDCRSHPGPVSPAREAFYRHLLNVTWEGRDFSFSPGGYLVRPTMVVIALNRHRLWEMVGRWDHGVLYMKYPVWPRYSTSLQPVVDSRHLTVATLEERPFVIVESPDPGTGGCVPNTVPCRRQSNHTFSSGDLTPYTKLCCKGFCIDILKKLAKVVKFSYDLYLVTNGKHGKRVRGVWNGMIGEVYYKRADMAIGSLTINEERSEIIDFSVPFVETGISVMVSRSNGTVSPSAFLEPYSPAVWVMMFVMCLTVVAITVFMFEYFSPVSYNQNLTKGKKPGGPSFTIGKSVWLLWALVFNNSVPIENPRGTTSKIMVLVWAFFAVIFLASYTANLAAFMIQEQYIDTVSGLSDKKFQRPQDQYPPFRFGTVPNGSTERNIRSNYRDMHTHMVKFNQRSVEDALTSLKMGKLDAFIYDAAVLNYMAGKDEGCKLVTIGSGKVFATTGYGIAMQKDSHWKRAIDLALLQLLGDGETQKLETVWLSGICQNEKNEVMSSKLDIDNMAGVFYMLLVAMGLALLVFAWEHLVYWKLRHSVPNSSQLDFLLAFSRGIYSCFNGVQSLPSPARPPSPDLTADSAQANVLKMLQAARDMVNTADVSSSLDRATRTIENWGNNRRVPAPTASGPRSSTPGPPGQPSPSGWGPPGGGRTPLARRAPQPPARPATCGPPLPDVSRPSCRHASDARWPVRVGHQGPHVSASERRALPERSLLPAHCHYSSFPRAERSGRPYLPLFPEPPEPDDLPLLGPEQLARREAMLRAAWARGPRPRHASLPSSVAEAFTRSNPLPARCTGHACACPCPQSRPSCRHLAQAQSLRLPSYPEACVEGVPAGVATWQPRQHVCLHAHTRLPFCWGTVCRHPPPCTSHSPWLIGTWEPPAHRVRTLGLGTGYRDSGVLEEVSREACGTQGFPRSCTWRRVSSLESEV

Molecule | tested on | assay | system | conditions | scale | endpoint | value
O=C(O)c1cc2cc(Br)ccc2oc1=O | Glutamate NMDA receptor; Grin1/Grin2c (Rattus norvegicus, UniProt P35439+Q00961) | – | – | concentration not given | – | inhibition | 100%
CC[C@H](C)[C@H](NC(=O)[C@H](CCCCN)NC(=O)[C@H](Cc1c[nH]cn1)NC(=O)[C@@H](N)CCCNC(=N)N)C(=O)N[C@@H](CC(C)C)C(=O)N[C@@H](Cc1c[nH]cn1)C(=O)N[C@@H](CCCNC(=N)N)C(=O)N[C@@H](CC(C)C)C(=O)N[C@@H](CC(C)C)C(=O)N[C@@H](CCC(N)=O)C(=O)N[C@@H](CCC(=O)O)C(=O)NCC(=O)N[C@@H](CO)C(=O)O | Nuclear receptor subfamily 1 group I member 3, with RXR (Mus musculus, UniProt O35627) | binding, isothermal titration calorimetry | – | pH 7.2, 25°C, added: TCPOBOP, fourfold excess | – | ΔG | -8.5 kcal/mol
KCNTATCATQRLANFLVHSSNNFGAILSSTNVGSNTY (amylin (human); not fully specified (C-terminus, bridges); cysteine pairing not given here; sequence looked up) | calcitonin receptor with RAMP1, human | – | peptide | – | reference: calcitonin receptor alone | potency increase | 11 fold
C[C@]12CCC[C@@H]1[C@H]1CCc3cc(O)ccc3[C@@H]1CC2 (single isomer, unassigned) | oestrogen receptor alpha | binding, competition binding | – | – | – | EC50 | 25.3 nM
YRAL | HLA-DR1, human | circular dichroism | peptide | peptide-MHC complex | – | melting temperature | 71 °C
O=C(O[C@@H]1Cc2c(O)cc(O)cc2O[C@@H]1c1cc(O)c(O)c(O)c1)c1cc(O)c(O)c(O)c1 | proteasome chymotrypsin-like activity | – | tumour cells | – | – | inhibitory concentration | 1 to 10 µM
[Sr+2] | BK channel (rat) | channel activation, activator | skeletal muscle T-tubule in lipid bilayer | – | reference: Ca2+ | EC50 relative to Ca2+ | 161
Cc1csc(N(C)C(=O)CSc2ccc(-c3ccccc3)nn2)n1 | off-target panel | – | – | 10 µM | – | inhibition | ≤ 50%
COc1cc2c(cc1OC)CN(CCc1ccc(NC(=O)c3cc(OC)c(OC)cc3NC(=O)c3cnc4ccccc4c3)cc1)CC2 | human P-glycoprotein | PET, measured: (R)-[11C]verapamil | healthy human | 2 mg/kg | reference: baseline scan | brain distribution | 1.25 fold
COCCOC(=O)C1=C(C)NC(C)=C(C(=O)OC(C)C)C1c1cccc([N+](=O)[O-])c1 (stereo not shown) | human KCa3.1 | – | – | – | reference: KCa3.1 IC50 over CaV1.x IC50 | selectivity ratio | > 200 fold
CC(C)C1c2cc(C3CC3c3ccc4cc(C(=N)N)ccc4c3)ccc2CCN1C (stereo not shown) | acid-sensing ion channel | ion current | – | concentration not given, reported in literature | – | inhibition | inhibited
C[C@]12CC[C@@H]3c4ccc(O)cc4CC[C@H]3[C@@H]1CC[C@@H]2OC(=O)c1ccccc1 | oestrogen receptor beta | binding, competition binding | – | – | – | EC50 | 16.8 nM
CC(=O)O[C@H]1C(=O)[C@@]2(C)[C@H]([C@H](OC(=O)c3ccccc3)[C@]3(O)C[C@H](OC(=O)[C@H](O)[C@@H](NC(=O)c4ccccc4)c4ccccc4)C(C)=C1C3(C)C)[C@]1(OC(C)=O)CO[C@@H]1C[C@@H]2O | tubulin | microtubule assembly | – | concentration not given | – | critical concentration | 4.2 ± 0.2 µM
CC(=O)O[C@@H]1CC[C@@]2(C)[C@H](CC[C@@H]3[C@@H]2CC[C@]2(C)[C@@H]([C@H](C)CCC(=O)O)CC[C@@H]32)C1 | vitamin D receptor | reporter gene, agonist | – | concentration not given | reference: lithocholic acid | transcriptional activity | 30 fold
Oc1cccc(-c2nc(N3CCOCC3)c3oc4ncccc4c3n2)c1 | mTORC2 | enzyme activity, inhibitor | – | added: ATP 10 µM | – | IC50 | 125 nM
O=P(O)(O)OC[C@H]1O[C@H](OP(=O)(O)OP(=O)(O)O)[C@H](O)[C@@H]1O | HGPRT Trypanosoma cruzi isoform A | substrate, measured: IMP | – | 20 to 215 µM, added: hypoxanthine 60 µM | – | kcat | 23 s⁻¹
C[C@]12CC[C@@H]3c4cc(C56CC7CC(CC(C7)C5)C6)c(O)cc4CC[C@H]3[C@@H]1CC[C@@H]2O | oestrogen receptor beta | binding, competition binding | – | – | – | EC50 | > 10000 nM
Cc1ccc([N+](=O)[O-])cc1S(=O)(=O)N(C)/N=C/c1cnc2ccc(Br)cn12 | mTORC2 | enzyme activity, inhibitor | – | added: ATP 10 µM | – | IC50 | 160 nM
O=S(=O)(O)c1cc(N=C=S)ccc1C=Cc1ccc(N=C=S)cc1S(=O)(=O)O | band 3 anion exchanger (SLC4A1), human | chloride transport, reversible inhibitor | human erythrocytes | 0 °C | – | Ki | 30 nM

Molecule | tested on | assay | system | conditions | scale | endpoint | value
CSC[C@H]1CN(Cc2c[nH]c3c(N)ncnc23)C[C@@H]1O | MTA/SAH nucleosidase, Escherichia coli | inhibitor | – | – | – | Ki | 0.005 nM
Nc1nc2c(nc(Sc3ccc(Cl)cc3)n2C2O[C@@H]3COP(=O)(O)O[C@H]3[C@H]2O)c(=O)[nH]1 (stereo in doubt) | PDE2A | cyclic nucleotide hydrolysis, substrate or inhibitor, isothermal titration calorimetry | – | – | – | Km or Ki | 40000 nM
CS(=O)(=O)CCNCc1ccc(-c2ccc3ncnc(Nc4ccc(OCc5cccc(F)c5)c(Cl)c4)c3c2)o1 | hiPSC-derived cardiomyocytes | contractility | – | 72 h | – | lowest effective concentration | 11 µM
CCCCCCCC(=O)OCC(COC(=O)CCCCCCC)OC(=O)CCCCCCC | human FXR alpha | antagonist, Tox21 qHTS or literature | – | concentration not given | – | activity call | inactive
Cc1cc(C(C)Nc2ccccc2)c2oc(-c3ccncc3)cc(=O)c2c1 (stereo not shown) | PI4KIIIα | enzyme activity, inhibitor | – | added: 10 µM ATP | – | IC50 | > 100000 nM
C[C@]12CC=C3c4ccc(O)cc4CC[C@H]3[C@@H]1CC[C@@H]2O | oestrogen receptor beta | binding, competition binding | – | – | – | EC50 | 4.06 nM
Nc1nc2c(nc(Sc3ccc(Cl)cc3)n2C2OC3COP(O)(=S)OC3C2O)c(=O)[nH]1 (stereo not shown) | PDE1C | cyclic nucleotide hydrolysis, substrate or inhibitor, isothermal titration calorimetry | – | – | – | Km or Ki | 32600 nM
CCC(C)c1c(O)ccc2c1CC[C@@H]1[C@@H]2CC[C@]2(C)C(=O)CC[C@@H]12 (stereo partly shown) | oestrogen receptor beta | binding, competition binding | – | – | – | EC50 | > 10000 nM
VDKPPYLPRPRPPROIYNO-NH2 (C-amide) | Escherichia coli BL21(DE3)RIL ribosome | fluorescence polarization | peptide | – | – | Kd | 450 ± 30 nM
O=C1c2cccc3c2[C@H](CCC3)CN1[C@@H]1CN2CCC1CC2 | – | – | cancer patients, plasma | oral, dose not given, netupitant-palonosetron fixed combination, added: cyclophosphamide 500-1000 mg/m^2 IV | – | AUC(0-inf) | 48.1 ng·h/mL
O=C(Nc1n[nH]c2cc(-c3cccc(NS(=O)(=O)c4ccccc4F)c3)ccc12)C1CC1 | CDKL2 (human) | DiscoverX scanMAX | – | 1 µM | reference: control | remaining binding | 55 to 60%
O=c1[nH]c(=O)c2[nH]c(=O)c(=O)n(C[C@H](O)[C@H](O)[C@H](O)CO)c2[nH]1 | Bacillus subtilis lumazine synthase | – | recombinant β60 capsid | pH 7.0, Tris·HCl buffer, added: 2 constant, 1 varied | – | Ks | 6.3 ± 0.5 µM
C[C@]12CC[C@@H]3c4ccc(O)cc4CC[C@H]3[C@@H]1CC1(CCCC1)C2=O | oestrogen receptor alpha | binding, competition binding | – | – | – | EC50 | 127 nM
NCCC(=O)N[C@@H](Cc1cnc[nH]1)C(=O)O | PEPT2, rat | uptake, substrate | rat choroid plexus primary cells | – | – | Km | 34 µM
Cc1nc2ccc(CN(C)c3ccc(C(=O)N[C@@H](CCC(=O)O)C(=O)O)s3)cc2c(=O)[nH]1 | thymidylate synthase | enzyme activity, inhibitor | – | – | reference: polyglutamate over monoglutamate | potency increase | 60 fold
COc1ccc2c(c1OC)N=C(NC(=O)c1cccnc1)N1CCN=C21 | ATR | kinase activity, inhibitor | – | added: 10 µM ATP | – | IC50 | 15000 nM
Cc1c(O)c(C23CC4CC(CC(C4)C2)C3)cc2c1CC[C@@H]1[C@@H]2CC[C@]2(C)C(=O)CC[C@@H]12 | oestrogen receptor alpha | binding, competition binding | – | – | – | EC50 | > 10000 nM
COc1cc2c(cc1OC)CN(CCc1ccc(NC(=O)c3cc(OC)c(OC)cc3NC(=O)c3cnc4ccccc4c3)cc1)CC2 | P-glycoprotein | rhodamine-123 efflux, inhibitor | peripheral lymphocytes | concentration not given | – | duration of full inhibition | > 24 h
